Measurements pooled from the literature.
Values joined by “and” are separate records of one study, mostly repeats; a detail may differ. ± marks the error that the study gave.
HTR7: 5-hydroxytryptamine receptor 7 (HTR7, Homo sapiens, UniProt P34969)
HDAC4: Histone deacetylase 4 (HDAC4, Homo sapiens, UniProt P56524)
HTR2A: 5-hydroxytryptamine receptor 2A (HTR2A, Homo sapiens, UniProt P28223)
nusB with NusE: Transcription antitermination protein NusB, with NusE (nusB, Bacillus subtilis, UniProt P54520)
gag-pol integrase: Gag-Pol polyprotein, integrase (gag-pol, Human immunodeficiency virus type 1 group M subtype B, UniProt P04585)
TGFBR2: TGF-beta receptor type-2 (TGFBR2, Homo sapiens, UniProt P37173)
GRM2: Metabotropic glutamate receptor 2 (GRM2, Homo sapiens, UniProt Q14416)

`O=C(NO)c1ccc(CN2CCCCc3ccccc32)c(F)c1` has an inhibition of -1.05% (HTR7; radioligand binding, radioligand displacement; 10 µM, mean of replicates).
With `O=C(NO)c1cc(F)cc(OS(=O)(=O)Oc2ccccc2)c1` the inhibition was 19% (HDAC4; 10 µM).
With `Clc1cncc(OC[C@@H]2CN(CCN3CCc4ccccc43)CCO2)c1` the inhibition was 39.9% (HTR2A; radioligand binding; concentration not given, together with: [3H]ketanserin).
`[2H]c1cc(C)c(NC(=O)c2cnc(Nc3cc(N4CCCCC4)nc(C)n3)s2)c(Cl)c1` has an inhibition of under 30% (MAP kinase-interacting serine/threonine-protein kinase 1 (MKNK1, Homo sapiens, UniProt Q9BUB5); 0.01 µM).
For `CCNC(=O)Nc1ccc(OC/C=C\COc2ccc(CC(N)=O)cc2)cc1`, the inhibition was 13% (nusB with NusE; NusE binding, inhibitor, competitive ELISA; 25 µM).
For `Cn1cc(-c2ccccc2)c2ccc(Cl)nc21`, the inhibition was 14.4% (gag-pol integrase; strand transfer, inhibitor; HIV-1; 10 µM).
For `Oc1ccc(-c2nc(-c3ccncc3)c(-c3ccc(F)cc3)[nH]2)cc1`, the inhibition was 34% (TGFBR2; inhibitor; 1 µM).
`CCN1/C(=C/C(C)=O)Sc2ccc(F)cc21` has an inhibition of 1.93% (Androgen receptor (Ar, Rattus norvegicus, UniProt P15207); 10 µM).
`COc1cc2c(cc1OC)C(=O)C(CC1CCN(Cc3ccccc3)CC1)C2` (centres unmarked) gave an inhibition of 35.9% (HTR7; radioligand binding; concentration not given, together with: [3H]LSD).
`COc1cc(C(=O)NS(=O)(=O)c2ccccc2C)ccc1Cc1cn(C)c2ccc(NC(=O)OC3CCCC3)cc12` has an inhibition of 93.3% and 83.5% and 94.6% and 92.2% and 95.3% and 90.6% and 92.9% (Volume-regulated anion channel subunit LRRC8C, part LRRC8A IL1 chimera (LRRC8C, Homo sapiens, UniProt Q8TDW0, L136K); ion current, inhibitor, whole-cell patch clamp; HCT LRRC8-/- cells; 3 µM, +100 mV).
`COC(=O)c1ccc(OC/C=C\COc2ccc(C(=O)OC)cc2)cc1` has an inhibition of 3% (nusB with NusE; NusE binding, inhibitor, competitive ELISA; 25 µM).
With `Cc1nn(-c2ccc(F)cc2F)c(=O)c2nocc12` the inhibition was -48% (GRM2; cAMP accumulation, antagonist; 10 µM, together with: glutamate 1 µM, forskolin).
`COc1ccc2c(c1)C(=O)N(CCN1CCN(c3ccccc3OC)CC1)C2` has an inhibition of 38.4% (HTR2A; radioligand binding; concentration not given, together with: [3H]ketanserin).
With `Cc1cc(-c2ccnc3[nH]cc(F)c23)cc(F)c1[C@@]1(O)[C@H](C)CN(C2CCS(=O)(=O)CC2)C[C@@H]1C` the inhibition was 56% (ROCK1 and ROCK2; ATP probe binding, KiNativ, refers to: Lys2 site; HEK293T cell lysate; 10 µM).
`Fc1ccc(-c2c(-c3ccncc3)ncn2-c2ccccc2)cc1` gave an inhibition of 28% (TGFBR2; inhibitor; 1 µM).
With `C[C@H](CS)C(=O)N1CCC[C@H]1C(=O)O` the inhibition was 1.7% (Nedd8-cullin1 interaction; neddylation, AlphaScreen; 100 µM).
The inhibition of `COc1cccc(OC[C@@H]2CN(CCN3CCc4ccccc43)CCO2)c1` is reported as 22.6% (HTR7; radioligand binding; concentration not given, together with: [3H]LSD).
`C[C@]12CC[C@H]3[C@@H](CNC4=CC(=O)CC[C@@]43C)[C@@H]1CC[C@@H]2C(=O)O` — result for inhibition: “no inhibition” (3 beta-hydroxysteroid dehydrogenase/Delta 5-->4-isomerase (Mycobacterium tuberculosis, UniProt P9WQP7); inhibitor; up to 200 µM).
For `COc1cccc(OC[C@@H]2CN(CC(=O)N3CCc4ccccc43)CCO2)c1`, the inhibition was 52.1% (HTR2A; radioligand binding; concentration not given, together with: [3H]ketanserin).
For `NC/C(=C\F)COc1cccc(Cn2c(=S)[nH]c(=O)c3[nH]cnc32)c1`, the inhibition was 24.4% (Protein-lysine 6-oxidase (Homo sapiens, UniProt P28300); enzyme activity, inhibitor; 10 µM).
With `c1cncc(OC[C@@H]2CN(CCN3CCc4ccccc43)CCO2)c1` the inhibition was 40.8% (5-hydroxytryptamine receptor 2C (HTR2C, Homo sapiens, UniProt P28335); radioligand binding; concentration not given, together with: [3H]mesulergine).
The inhibition of `Cc1ccc(C(=O)Nc2ccc3ccccc3c2)o1` is reported as 10.4% and 5.7% and 6.7% and 9.8% and 2.5% (Sodium channel protein type 4 subunit alpha (SCN4A, Homo sapiens, UniProt P35499); ion current, inhibitor, whole-cell patch clamp; 10 µM).
`CC12CC3CC(C)(C1)CC(N)(C3)C2`: inhibition “no inhibition” (N-acyl-aromatic-L-amino acid amidohydrolase (carboxylate-forming) (Acy3, Mus musculus, UniProt Q91XE4); inhibitor; concentration not given).
`COc1ccc(F)cc1C(=O)NCc1ccc(-c2nn([C@@H](C)C(F)(F)F)c(N)c2C(N)=O)cc1` has an inhibition of 33.7% (Tyrosine-protein kinase HCK (HCK, Homo sapiens, UniProt P08631); target engagement, competitive chemoproteomics; human PBMCs; 10 µM).
The inhibition of `CC[C@@H]1[C@H](F)C(=O)N[C@@H]1COc1nccc2cc(C(N)=O)c(OC)cc12` is reported as 5.6% (Beta-adrenergic receptor kinase 1 (GRK2, Homo sapiens, UniProt P25098); ATP-site probe binding, ActivX profiling, refers to: BARK1; THP-1 cell lysate; 0.01 mM, Lys2 site).
`Fc1ccc(-c2ncn(-c3ccccc3)c2-c2ccncc2)cc1` gave an inhibition of 40% (TGFBR2; inhibitor; 1 µM).
`Cn1cncc1C1=CN(c2ncnc3[nH]cnc23)CCS1` has an inhibition of 88.9% (Serine/threonine-protein kinase D3 (PRKD3, Homo sapiens, UniProt O94806); kinase activity, HotSpot; 2 µM).
`O=C(NO)c1cncc(OS(=O)(=O)Oc2ccc(C(F)(F)F)cc2)c1` gave an inhibition of 38% (HDAC4; 10 µM).
With `COc1c([C@H]2[C@H](C(=O)Nc3ccnc(C(N)=O)c3)O[C@@](C)(C(F)(F)F)[C@H]2C)ccc(F)c1F` the inhibition was 98.1% (Sodium channel protein type 10 subunit alpha (SCN10A, Homo sapiens, UniProt Q9Y5Y9); ion current, antagonist, whole-cell patch clamp; HEK293T cells; 10 nM, resting state (TP1)).
With `CN1CCN(CCCOc2ccc(=O)n(-c3ccc(Cl)c(Cl)c3)n2)CC1` the inhibition was 38.8 ± 4.93% (NMDA receptor; radioligand binding; 1.0 µM).
`CCNC(=O)Nc1ccc(OCc2cccc(COc3ccc(NC(=O)NCC)cc3)c2)cc1` has an inhibition of 10% (nusB with NusE; NusE binding, inhibitor, competitive ELISA; 25 µM).
For `Cc1cc(-c2ccnc3[nH]cc(F)c23)cc(F)c1[C@@]1(O)[C@H](C)CN(C(=O)CN)C[C@@H]1C`, the inhibition was 20.3% (ROCK1 and ROCK2; ATP probe binding, KiNativ, refers to: Lys2 site; HEK293T cell lysate; 1 µM).
`C[S+]([O-])c1ccc(-c2nc(-c3ccncc3)c(-c3ccc(F)cc3)[nH]2)cc1` (centres unmarked) gave an inhibition of 52% (TGFBR2; inhibitor; 1 µM).
With `COc1ccc2c(c1)CN(CCCN1CCN(c3ccccc3OC)CC1)C2=O` the inhibition was 84.8% (HTR7; radioligand binding; concentration not given, together with: [3H]LSD).
With `CN1CCN(c2cc(-c3ccncc3)c(-c3ccc4ccccc4c3)nn2)CC1` the inhibition was -13.8% (Pituitary adenylate cyclase-activating polypeptide type I receptor (ADCYAP1R1, Homo sapiens, UniProt P41586); antagonist, FLIPR; 10 µM).
For `O=c1oc(-c2cccnc2)nc2ccccc12`, inhibition read “inhibited” (Cathepsin G (CTSG, Homo sapiens, UniProt P08311); enzyme activity, inhibitor, chromogenic substrate hydrolysis; concentration not given, pH 7.4, 37 °C).
For `COc1ccc(-c2ccc3c(C(=O)c4cc(OC)c(OC)c(OC)c4)c[nH]c3c2)cc1`, inhibition read “inhibited” (Tubulin alpha-1B chain/TUBB2B (Bos taurus, UniProt P81947+Q6B856); tubulin polymerization, turbidimetry; concentration not given).
For `COc1ccc(Cn2cc(-c3ccc4c(c3)OCO4)c3ccc(-c4ccc5ccccc5c4)nc32)cc1`, the inhibition was 24.1% (gag-pol integrase; strand transfer, inhibitor; HIV-1; 10 µM).
The inhibition of `COc1ccc(-n2nc(C)c3conc3c2=O)cc1` is reported as -55% (GRM2; cAMP accumulation, antagonist; 10 µM, together with: glutamate 1 µM, forskolin).
`O=C(O)c1cn(C2CC2)c2cc(N3CCNCC3)c(F)cc2c1=O` gave an inhibition of 55.5% (DNA gyrase subunit A (gyrA, Escherichia coli K-12, UniProt P0AES4); enzyme activity, inhibitor, DNA supercoiling; 1 µM).
The inhibition of `Cc1ccc(-c2cn(C)c3nc(Cl)ccc23)cc1` is reported as 41% (gag-pol integrase; strand transfer, inhibitor; HIV-1; 10 µM).
`CC1=C(C(=O)OC(C)C)C(c2cccc([N+](=O)[O-])c2)C(C(=O)OC2CN(C(c3ccccc3)c3ccccc3)C2)=C(N)N1` (centres unmarked) has an inhibition of 103% (Nedd8-cullin1 interaction; neddylation, AlphaScreen; 100 µM).
With `Cn1cc(-c2ccccc2)c2ccc(-c3cc(C(F)(F)F)cc(C(F)(F)F)c3)nc21` the inhibition was 36.4% (gag-pol integrase; strand transfer, inhibitor; HIV-1; 10 µM).
For `Cc1ccc(OC[C@H]2CN(CCN3CCc4ccccc43)CCO2)cn1`, the inhibition was 48.2% (HTR7; radioligand binding; concentration not given, together with: [3H]LSD).
`OCCCN1CC[C@@H]2C[C@H]1c1cc(-c3ccc(C(F)(F)F)cc3)ccc12` has an inhibition of under 50% (HTR7; radioligand binding, PDSP competition binding; 10 µM).
`Cc1cccc(O[C@@H]2CCC[C@H](C(C)CNCc3ccncc3)C2)c1` (relative stereo) has an inhibition of about 15% (Mtnd1/Ndufs2/Ndufs7, complex I (Mus musculus, UniProt P03888+Q91WD5+Q9DC70); NADH oxidation, inhibitor; 1 µM).
`CN(C(=O)n1cnc(-c2ccc[n+]([O-])c2)c1)C1CCCCC1` gave an inhibition of -4.78% (Thromboxane A2 receptor (TBXA2R, Homo sapiens, UniProt P21731); 10 µM).
`COc1ccc(Cn2cc(-c3ccsc3)c3ccc(-c4ccncc4)nc32)cc1` gave an inhibition of 15.9% (gag-pol integrase; strand transfer, inhibitor; HIV-1; 10 µM).
The inhibition of `Cc1nc(-c2ccc(OC/C=C\COc3ccc(-c4noc(C)n4)cc3)cc2)no1` is reported as 13% (nusB with NusE; NusE binding, inhibitor, competitive ELISA; 25 µM).
Under inhibition, `CCNCc1cnn(-c2ccc(-n3ccc(Cl)c(Cl)c3=O)cc2)c1C(F)(F)F` is recorded as “no inhibition” (Short transient receptor potential channel 7 (Homo sapiens, UniProt Q9HCX4); ion current, whole-cell patch clamp; 10 µM, together with: carbachol).

For quick reference, copied from above:
`COC(=O)c1ccc(OC/C=C\COc2ccc(C(=O)OC)cc2)cc1` has an inhibition of 3% (nusB with NusE; NusE binding, inhibitor, competitive ELISA; 25 µM).
The inhibition of `COc1cccc(OC[C@@H]2CN(CCN3CCc4ccccc43)CCO2)c1` is reported as 22.6% (HTR7; radioligand binding; concentration not given, together with: [3H]LSD).
`Cc1cccc(O[C@@H]2CCC[C@H](C(C)CNCc3ccncc3)C2)c1` (relative stereo) has an inhibition of about 15% (Mtnd1/Ndufs2/Ndufs7, complex I (Mus musculus, UniProt P03888+Q91WD5+Q9DC70); NADH oxidation, inhibitor; 1 µM).
